Measured values of several laboratories.
Each line is one published result; not all experiments were run side by side. Several values in a cell are separate wells, animals, samples, runs or records. ± marks the error that the study gave. Converted amounts (≈) assume the structure as drawn.

SMILES | target or system | test | system | setting | scale | endpoint | result
N#CCC(=O)Nc1ccc(C2CCCCC2)cc1 | – | liver microsome stability | human liver microsomes | 1 µM, without NADPH | – | hepatic clearance | 8.2 mL/min/kg
Cc1cc(NC(=O)C2CCCN(S(=O)(=O)c3cccc4nonc34)C2)ccc1Br (centres unmarked) | Mus musculus | gene silencing, high-content imaging | LDR reporter GFP cells | retest run 2 | – | maximal activity | 35%
CCCN(CCS(C)(=O)=O)Cc1ccc(-c2ccc3ncnc(Nc4ccc(OCc5cccc(F)c5)c(Cl)c4)c3c2)o1 | Trypanosoma brucei | – | – | unit not given | relative to: pEC50 T. brucei minus pTC50 HepG2 | selectivity | > 1.7
COc1ccc2c(C)cc(SCC(=O)N(C)C3CCS(=O)(=O)C3)nc2c1 (centres unmarked) | Mus musculus | gene silencing, high-content imaging | LDR reporter GFP cells | retest run 2 | – | maximal activity | 20%
Nc1ncnc2c1c(-c1cccc(OCc3ccccc3)c1)cn2[C@H]1C[C@@H](CN2CCC2)C1 | Trypanosoma brucei | cell growth | – | – | – | EC50 | 1.82 ± 0.348 µM
CC(C)n1ncc2c(C(=O)NCC3(C)CNC3)cc(C3CC3)nc21 | Enterovirus D68 | cytopathic effect | RD, US/IL/14-18956 | 5 nM | – | cell protection | -0.844% and -1.27%
O=C(Nc1n[nH]c2nc(-c3ccc(O)cc3)c(Br)cc12)C1CC1 | Trypanosoma brucei | – | – | unit not given | relative to: pEC50 T. brucei minus pTC50 HepG2 | selectivity | 1.8
CCN(CC)c1ccc2c(c1)oc(=O)c1c(Cl)cc(=O)oc12 | Mus musculus | gene silencing, high-content imaging | LDR reporter GFP cells | retest run 2 | – | maximal activity | 113%
C[C@@H](Oc1cc(-n2cnc3ccc(OC4CCN(C)CC4)cc32)sc1C(N)=O)c1ccccc1Cl | Trypanosoma brucei | – | – | unit not given | relative to: pEC50 T. brucei minus pTC50 HepG2 | selectivity | 2.2
CC(=O)N1CC(C(=O)Nc2ccc([C@H]3[C@@H](F)[C@@H](F)C[C@@H](F)[C@H]3F)cc2)C1 | – | liver microsome stability | human liver microsomes | 1 µM, without NADPH | – | hepatic clearance | 3.9 mL/min/kg
O=c1[nH]c2ncsc2c(=O)n1O | Digitaria adscendens | – | – | 1500 g/ha, 21 days, post-emergence, glasshouse pot | – | growth inhibition | 20.9%
CCn1c(=O)c(-c2cc[nH]n2)cc2c(C)nc(N)nc21 | Enterovirus A71 | post-entry viral replication, RT-qPCR | RD | 4 µM | – | viral RNA reduction | > 90%
CN[C@H](CC(C)C)C(=O)N[C@H]1C(=O)N[C@@H](CC(N)=O)C(=O)N[C@H]2C(=O)N[C@H]3C(=O)N[C@H](C(=O)N[C@H](C(=O)O)c4cc(O)cc(O)c4-c4cc3ccc4O)[C@H](O)c3ccc(c(Cl)c3)Oc3cc2cc(c3O[C@@H]2O[C@H](CO)[C@@H](O)[C@H](O)[C@H]2O[C@H]2C[C@](C)(N)[C@H](O)[C@H](C)O2)Oc2ccc(cc2Cl)[C@H]1O | Staphylococcus epidermidis | broth microdilution | methicillin-resistant isolates | – | – | MIC90 | 2 µg/mL (≈ 1.38 µM)
CCCCOC(=O)Cn1c2ccc(OC)cc2c2nc3ccccc3nc21 | Mus musculus | gene silencing, high-content imaging | LDR reporter GFP cells | retest run 1 | – | maximal activity | 21%

A few entries again:
SMILES | target or system | test | system | setting | scale | endpoint | result
O=c1[nH]c2ncsc2c(=O)n1O | Digitaria adscendens | – | – | 1500 g/ha, 21 days, post-emergence, glasshouse pot | – | growth inhibition | 20.9%
CC(C)n1ncc2c(C(=O)NCC3(C)CNC3)cc(C3CC3)nc21 | Enterovirus D68 | cytopathic effect | RD, US/IL/14-18956 | 5 nM | – | cell protection | -0.844% and -1.27%
